Measured values of several laboratories.
Each numbered part is a random draw from the data of one study; scales do not carry over between parts.
Sequence of UniProt Q9NQU5 (whole entry, looked up): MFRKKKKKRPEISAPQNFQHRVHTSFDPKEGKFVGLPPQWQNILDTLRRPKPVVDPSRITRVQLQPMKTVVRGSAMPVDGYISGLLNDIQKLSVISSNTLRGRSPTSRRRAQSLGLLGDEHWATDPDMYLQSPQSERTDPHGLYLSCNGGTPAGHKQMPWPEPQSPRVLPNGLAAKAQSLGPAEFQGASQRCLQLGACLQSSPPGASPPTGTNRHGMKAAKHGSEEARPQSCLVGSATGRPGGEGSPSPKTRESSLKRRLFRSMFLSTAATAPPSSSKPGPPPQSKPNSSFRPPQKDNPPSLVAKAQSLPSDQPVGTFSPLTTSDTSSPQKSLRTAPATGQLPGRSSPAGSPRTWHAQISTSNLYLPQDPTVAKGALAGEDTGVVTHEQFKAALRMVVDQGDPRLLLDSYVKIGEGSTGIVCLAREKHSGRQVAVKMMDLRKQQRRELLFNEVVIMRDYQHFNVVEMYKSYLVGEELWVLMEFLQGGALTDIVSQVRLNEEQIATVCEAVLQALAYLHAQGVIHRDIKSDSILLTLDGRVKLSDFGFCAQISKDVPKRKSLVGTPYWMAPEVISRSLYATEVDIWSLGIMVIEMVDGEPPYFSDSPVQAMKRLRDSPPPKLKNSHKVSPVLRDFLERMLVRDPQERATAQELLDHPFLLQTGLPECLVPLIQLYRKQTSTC
Sequence of UniProt P49759 (whole entry, looked up): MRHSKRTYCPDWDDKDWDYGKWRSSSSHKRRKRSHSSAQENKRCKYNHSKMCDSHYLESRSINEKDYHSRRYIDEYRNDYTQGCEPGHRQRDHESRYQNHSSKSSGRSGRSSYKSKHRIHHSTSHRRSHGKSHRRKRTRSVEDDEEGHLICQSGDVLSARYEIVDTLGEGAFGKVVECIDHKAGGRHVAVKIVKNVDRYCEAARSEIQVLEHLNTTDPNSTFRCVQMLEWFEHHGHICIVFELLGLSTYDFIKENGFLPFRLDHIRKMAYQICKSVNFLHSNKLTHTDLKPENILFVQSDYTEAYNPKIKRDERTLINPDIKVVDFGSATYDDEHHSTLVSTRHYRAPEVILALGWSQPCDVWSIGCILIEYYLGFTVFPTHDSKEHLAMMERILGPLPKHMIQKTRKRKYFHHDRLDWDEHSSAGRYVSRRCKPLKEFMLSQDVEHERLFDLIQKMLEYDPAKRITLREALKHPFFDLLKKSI
Sequence of UniProt Q15746 (whole entry, looked up): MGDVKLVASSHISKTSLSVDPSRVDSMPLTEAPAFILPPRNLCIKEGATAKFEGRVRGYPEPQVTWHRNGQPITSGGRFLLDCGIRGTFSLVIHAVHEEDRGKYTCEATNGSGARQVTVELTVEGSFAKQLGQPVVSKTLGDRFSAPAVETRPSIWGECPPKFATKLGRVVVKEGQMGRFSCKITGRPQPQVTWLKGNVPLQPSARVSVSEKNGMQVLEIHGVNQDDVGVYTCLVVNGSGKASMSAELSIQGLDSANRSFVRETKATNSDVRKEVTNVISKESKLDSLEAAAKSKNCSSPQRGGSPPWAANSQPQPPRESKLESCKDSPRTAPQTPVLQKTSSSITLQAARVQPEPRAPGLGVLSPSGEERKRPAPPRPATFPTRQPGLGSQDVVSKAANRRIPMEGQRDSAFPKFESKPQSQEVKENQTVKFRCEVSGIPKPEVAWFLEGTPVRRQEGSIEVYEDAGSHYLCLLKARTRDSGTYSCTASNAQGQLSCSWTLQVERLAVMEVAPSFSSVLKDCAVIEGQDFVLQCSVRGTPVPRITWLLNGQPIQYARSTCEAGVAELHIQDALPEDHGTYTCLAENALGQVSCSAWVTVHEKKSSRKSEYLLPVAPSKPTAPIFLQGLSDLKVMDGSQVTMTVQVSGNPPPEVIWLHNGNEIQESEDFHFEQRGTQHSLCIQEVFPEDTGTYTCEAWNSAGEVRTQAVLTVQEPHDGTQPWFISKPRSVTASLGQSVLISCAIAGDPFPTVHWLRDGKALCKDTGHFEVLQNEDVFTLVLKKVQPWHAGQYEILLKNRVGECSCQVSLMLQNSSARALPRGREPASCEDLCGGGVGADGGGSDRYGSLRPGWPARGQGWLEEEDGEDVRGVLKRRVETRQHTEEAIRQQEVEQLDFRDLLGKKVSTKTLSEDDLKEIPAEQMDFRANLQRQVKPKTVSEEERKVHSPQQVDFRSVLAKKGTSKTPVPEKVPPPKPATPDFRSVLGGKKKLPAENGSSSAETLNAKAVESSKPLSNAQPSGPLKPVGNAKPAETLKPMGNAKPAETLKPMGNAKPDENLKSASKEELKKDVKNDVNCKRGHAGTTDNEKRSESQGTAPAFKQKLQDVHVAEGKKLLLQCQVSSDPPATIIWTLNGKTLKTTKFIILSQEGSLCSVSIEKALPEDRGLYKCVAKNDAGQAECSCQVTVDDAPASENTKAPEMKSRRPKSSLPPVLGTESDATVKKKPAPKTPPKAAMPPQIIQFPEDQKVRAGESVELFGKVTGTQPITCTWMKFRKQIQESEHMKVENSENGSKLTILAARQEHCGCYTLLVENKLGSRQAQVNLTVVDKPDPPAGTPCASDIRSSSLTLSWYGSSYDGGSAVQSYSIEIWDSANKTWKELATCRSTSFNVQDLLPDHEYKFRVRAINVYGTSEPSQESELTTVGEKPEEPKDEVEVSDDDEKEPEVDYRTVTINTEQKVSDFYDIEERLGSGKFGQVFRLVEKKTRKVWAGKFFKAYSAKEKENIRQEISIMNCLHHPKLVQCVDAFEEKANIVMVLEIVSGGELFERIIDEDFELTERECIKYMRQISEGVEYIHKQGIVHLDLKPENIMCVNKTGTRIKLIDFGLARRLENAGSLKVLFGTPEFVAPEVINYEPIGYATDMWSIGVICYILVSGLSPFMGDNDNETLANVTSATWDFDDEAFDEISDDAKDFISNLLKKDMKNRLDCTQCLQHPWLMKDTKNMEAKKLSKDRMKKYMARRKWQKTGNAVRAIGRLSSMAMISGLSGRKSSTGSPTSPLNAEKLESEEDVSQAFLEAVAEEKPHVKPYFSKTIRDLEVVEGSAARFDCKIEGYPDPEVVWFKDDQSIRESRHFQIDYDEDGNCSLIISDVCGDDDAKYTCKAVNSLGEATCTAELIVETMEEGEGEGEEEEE
Sequence of UniProt Q9P2K8 (whole entry, unmodified, looked up): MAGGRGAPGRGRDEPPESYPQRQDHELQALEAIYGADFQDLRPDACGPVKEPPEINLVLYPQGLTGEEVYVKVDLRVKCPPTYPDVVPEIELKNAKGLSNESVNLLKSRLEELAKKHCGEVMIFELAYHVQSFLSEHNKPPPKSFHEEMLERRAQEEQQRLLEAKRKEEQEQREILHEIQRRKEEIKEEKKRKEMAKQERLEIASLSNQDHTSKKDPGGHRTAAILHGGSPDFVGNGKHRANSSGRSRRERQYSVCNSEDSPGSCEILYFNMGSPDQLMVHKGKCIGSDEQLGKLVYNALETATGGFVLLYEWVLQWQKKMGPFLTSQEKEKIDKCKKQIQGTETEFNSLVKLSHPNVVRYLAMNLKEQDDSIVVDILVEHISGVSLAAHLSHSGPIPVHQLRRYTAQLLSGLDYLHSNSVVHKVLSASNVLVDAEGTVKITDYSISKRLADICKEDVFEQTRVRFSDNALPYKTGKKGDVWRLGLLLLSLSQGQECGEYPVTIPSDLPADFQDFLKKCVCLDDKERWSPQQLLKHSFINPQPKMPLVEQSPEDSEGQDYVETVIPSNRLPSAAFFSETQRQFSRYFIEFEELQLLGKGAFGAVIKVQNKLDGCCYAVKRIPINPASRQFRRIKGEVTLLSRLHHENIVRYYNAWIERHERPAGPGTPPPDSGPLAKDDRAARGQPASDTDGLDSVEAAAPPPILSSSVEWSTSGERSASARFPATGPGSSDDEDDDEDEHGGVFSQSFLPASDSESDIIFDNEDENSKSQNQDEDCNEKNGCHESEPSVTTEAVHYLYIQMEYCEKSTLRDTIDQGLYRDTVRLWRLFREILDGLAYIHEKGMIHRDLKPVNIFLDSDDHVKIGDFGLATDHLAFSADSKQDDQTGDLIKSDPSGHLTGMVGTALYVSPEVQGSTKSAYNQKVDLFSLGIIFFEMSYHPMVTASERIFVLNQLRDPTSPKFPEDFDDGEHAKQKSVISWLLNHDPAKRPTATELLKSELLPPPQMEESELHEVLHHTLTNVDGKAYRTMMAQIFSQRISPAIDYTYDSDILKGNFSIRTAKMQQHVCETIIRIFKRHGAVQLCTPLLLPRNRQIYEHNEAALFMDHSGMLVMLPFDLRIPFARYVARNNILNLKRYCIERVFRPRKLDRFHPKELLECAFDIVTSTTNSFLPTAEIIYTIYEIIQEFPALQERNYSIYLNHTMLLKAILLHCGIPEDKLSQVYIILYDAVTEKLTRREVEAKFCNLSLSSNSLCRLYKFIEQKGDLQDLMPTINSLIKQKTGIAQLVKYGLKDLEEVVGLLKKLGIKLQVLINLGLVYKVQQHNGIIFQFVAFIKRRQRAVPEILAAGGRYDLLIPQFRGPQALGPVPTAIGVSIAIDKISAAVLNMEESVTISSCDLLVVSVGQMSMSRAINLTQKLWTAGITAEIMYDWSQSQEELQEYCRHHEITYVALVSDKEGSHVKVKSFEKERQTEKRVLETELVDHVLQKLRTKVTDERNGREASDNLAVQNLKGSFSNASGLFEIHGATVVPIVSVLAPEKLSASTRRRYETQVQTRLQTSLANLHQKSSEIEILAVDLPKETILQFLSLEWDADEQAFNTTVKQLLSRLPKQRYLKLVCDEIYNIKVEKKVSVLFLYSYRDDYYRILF
Sequence of UniProt Q86YV6 (whole entry, looked up): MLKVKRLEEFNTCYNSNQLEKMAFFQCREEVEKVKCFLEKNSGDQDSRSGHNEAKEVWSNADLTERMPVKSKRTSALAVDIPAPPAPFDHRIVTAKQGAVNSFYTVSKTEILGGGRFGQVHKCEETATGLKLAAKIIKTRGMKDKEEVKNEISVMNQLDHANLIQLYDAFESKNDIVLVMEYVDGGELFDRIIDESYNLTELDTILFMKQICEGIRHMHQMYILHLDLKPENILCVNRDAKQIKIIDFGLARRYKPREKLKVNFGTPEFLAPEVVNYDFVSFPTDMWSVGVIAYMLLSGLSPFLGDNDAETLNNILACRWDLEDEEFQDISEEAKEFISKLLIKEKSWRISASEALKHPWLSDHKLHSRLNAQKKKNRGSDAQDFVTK

Sample 1
SMILES: CNCc1ccccc1-c1csc([C@H](C)Nc2nc(C)nc3cc(OC)c(OC)cc23)c1
Observed: cell-free assay
Technique: competition with immobilised ligand
Tested at: 1 µM
target | remaining binding
RIPK1 (Homo sapiens, UniProt Q13546) | 100%
PAK6 (Homo sapiens, UniProt Q9NQU5) | 100%
FGFR4 (Homo sapiens, UniProt P22455) | 100%
NLK (Homo sapiens, UniProt Q9UBE8) | 100%
TNK2 (Homo sapiens, UniProt Q07912) | 100%
MST1R (Homo sapiens, UniProt Q04912) | 100%
Insulin receptor (INSR, Homo sapiens, UniProt P06213) | 89%
DCLK3 (Homo sapiens, UniProt Q9C098) | 100%
MYLK (Homo sapiens, UniProt Q15746) | 94%
TESK1 (Homo sapiens, UniProt Q15569) | 100%
PRKAA2 (Homo sapiens, UniProt P54646) | 100%
MYLK4 (Homo sapiens, UniProt Q86YV6) | 100%
PI4KB (Homo sapiens, UniProt Q9UBF8) | 74%
TSSK3 (Homo sapiens, UniProt Q96PN8) | 100%
HUNK (Homo sapiens, UniProt P57058) | 100%
CSNK1G2 (Homo sapiens, UniProt P78368) | 100%
ROCK2 (Homo sapiens, UniProt O75116) | 100%
MAP2K6 (Homo sapiens, UniProt P52564) | 100%
KIT (Homo sapiens, UniProt P10721, D816H) | 95%
NTRK3 (Homo sapiens, UniProt Q16288) | 100%
eIF-2-alpha kinase GCN2, C-terminal kinase domain (EIF2AK4, Homo sapiens, UniProt Q9P2K8, S808G) | 100%
BRSK2 (Homo sapiens, UniProt Q8IWQ3) | 100%
PRKG1 (Homo sapiens, UniProt Q13976) | 100%
EPHA4 (Homo sapiens, UniProt P54764) | 100%
SGK3 (Homo sapiens, UniProt Q96BR1) | 93%

Sample 2
Compound: COc1ccc(-c2c(Nc3ccccn3)[nH]c3c(C4=CCCCC4)c(-c4ccccc4)nn3c2=O)cc1
Host: cancer patients
Matrix: plasma
Route: oral
setting | Tmax, median
50 mg once daily, cycle 1 day 15, multiple dosing | 6 h
200 mg once daily, cycle 1 day 15, multiple dosing | 3 h
400 mg, cycle 0 day -3, single dose | 5 h
50 mg, cycle 0 day -3, single dose | 3 h
150 mg, cycle 0 day -3, single dose | 3 h
200 mg, cycle 0 day -3, single dose | 4 h

Sample 3
SMILES: O=C1NC(=O)c2c1c1c3ccccc3[nH]c1n1cncc21
Observed: enzyme activity
Action: inhibitor
Tested at: 0.5 µM
Reference: control
target | remaining activity
CLK2 (Homo sapiens, UniProt P49760) | 94.7%
TEC (Homo sapiens, UniProt P42680) | 96.7%
PAK1 (Homo sapiens, UniProt Q13153) | 93.9%
PAK6 (Homo sapiens, UniProt Q9NQU5) | 85.5%
CAMKK1 (Homo sapiens, UniProt Q8N5S9) | 63.5%
Cyclin-dependent kinase 2, with cyclin E (CDK2, Homo sapiens, UniProt P24941) | 66.5%
PRKCQ (Homo sapiens, UniProt Q04759) | 88.9%
JAK1 (Homo sapiens, UniProt P23458) | 102%
CLK1 (Homo sapiens, UniProt P49759) | 84%
TYRO3 (Homo sapiens, UniProt Q06418) | 88.8%
SIK2 (Homo sapiens, UniProt Q9H0K1) | 91.9%
EPHA2 (Homo sapiens, UniProt P29317) | 102%
CAMK1 (Homo sapiens, UniProt Q14012) | 83.3%
MUSK (Homo sapiens, UniProt O15146) | 54.4%
SRPK1 (Homo sapiens, UniProt Q96SB4) | 95.4%
CSNK1E (Homo sapiens, UniProt P49674) | 18.9%
IGF1R (Homo sapiens, UniProt P08069) | 76.8%
PRKCZ (Homo sapiens, UniProt Q05513) | 84.8%
MAP3K20 (Homo sapiens, UniProt Q9NYL2) | 78.7%
FLT1 (Homo sapiens, UniProt P17948) | 58%
SGK2 (Homo sapiens, UniProt Q9HBY8) | 75.3%
CSNK1D (Homo sapiens, UniProt P48730) | 17.2%
RPS6KA3 (Homo sapiens, UniProt P51812) | 47.4%

Sample 4
Compound: Cc1nc(Nc2ncc(C(=O)Nc3c(C)cccc3Cl)s2)cc(N2CCN(CCO)CC2)n1
Action: inhibitor
target | setting | inhibition [%]
MAPK9 (Homo sapiens, UniProt P45984) | 1 µM | < 50
Non-receptor tyrosine-protein kinase TYK2, JH1 domain (TYK2, Homo sapiens, UniProt P29597) | 10 µM | 98
MAPKAPK2 (Homo sapiens, UniProt P49137) | 1 µM | < 50
PAK2 (Homo sapiens, UniProt Q13177) | 10 µM | < 50
RIOK3 (Homo sapiens, UniProt O14730) | 10 µM | < 50
CAMK1D (Homo sapiens, UniProt Q8IU85) | 10 µM | < 50
CLK1 (Homo sapiens, UniProt P49759) | 10 µM | < 50
STK26 (Homo sapiens, UniProt Q9P289) | 10 µM | 93
NUAK1 (Homo sapiens, UniProt O60285) | 10 µM | < 50
TTK (Homo sapiens, UniProt P33981) | 10 µM | < 50
MKNK1 (Homo sapiens, UniProt Q9BUB5) | 1 µM | < 50
DDR2 (Homo sapiens, UniProt Q16832) | 1 µM | 95

A few entries again (sample 1):
target | remaining binding
MAP2K6 (Homo sapiens, UniProt P52564) | 100%
KIT (Homo sapiens, UniProt P10721, D816H) | 95%
NTRK3 (Homo sapiens, UniProt Q16288) | 100%
eIF-2-alpha kinase GCN2, C-terminal kinase domain (EIF2AK4, Homo sapiens, UniProt Q9P2K8, S808G) | 100%
BRSK2 (Homo sapiens, UniProt Q8IWQ3) | 100%
